Results from different studies.
Protocols differ between the studies behind these lines. Numbers after ± are the reported error.

| SMILES | assay | test system | setting | scale | measurement | result |
| --- | --- | --- | --- | --- | --- | --- |
| CC[C@H](C)[C@H](NC(=O)[C@H](CC(C)C)NC(=O)[C@H](Cc1c[nH]c2ccccc12)NC(=O)[C@H](C)NC(=O)[C@@H](NC(=O)[C@H](Cc1ccccc1)NC(=O)[C@H](CC(=O)O)NC(=O)[C@H](CCCNC(=N)N)NC(=O)[C@H](C)NC(=O)[C@H](C)NC(=O)[C@H](CC(C)C)NC(=O)[C@H](C)NC(=O)[C@H](CC(=O)O)NC(=O)[C@H](CC(C)C)NC(=O)[C@@H](NC(=O)[C@@H](NC(=O)[C@H](C)NC(=O)[C@H](CC(C)C)NC(=O)[C@H](CCC(=O)O)NC(=O)[C@H](CO)NC(=O)[C@H](CO)NC(=O)[C@H](Cc1ccccc1)NC(=O)[C@@H](NC(=O)CNC(=O)[C@H](CCC(=O)O)NC(=O)CNC(=O)[C@@H](N)Cc1cnc[nH]1)[C@@H](C)O)[C@@H](C)O)[C@@H](C)CC)[C@@H](C)CC)C(=O)N[C@@H](C)C(=O)N[C@H](C(=O)N[C@@H](CCCCN)C(=O)N[C@H](C(=O)N[C@H](C(=O)N[C@@H](CC(=O)O)C(=O)N[C@@H](CCCCN)C(=O)N[C@@H](CCCCN)C(=O)N[C@@H](CCCCN)C(=O)N[C@@H](CCCCN)C(=O)N[C@@H](CCCCN)C(=O)N[C@@H](CCCCN)C(N)=O)[C@@H](C)O)[C@@H](C)CC)[C@@H](C)O | immunoaffinity LC-MS/MS | healthy human subjects, plasma | intravenous infusion, 1 mg single dose, infused over 15 min | – | AUCinf | 0.0405 µM·h |
| Cc1cccc(C)c1N(CC(=O)Nc1ccc(-c2ncon2)cc1)C(=O)C1CCS(=O)(=O)CC1 | – | human | oral, 200 mg | reference: parent AUCinf | AUCinf excess of radioactivity | ~25% |
| Cn1cnc2c(F)c(Nc3ccc(Br)cc3Cl)c(C(=O)NOCCO)cc21 | ultrafiltration | human end-stage renal disease, plasma | oral, 50 mg | reference: healthy subjects | increase of unbound fraction | ~40% |
| Cc1cccc(Nc2ccccc2C(=O)O)c1C | mitochondrial swelling | BALB/cByJ female mouse liver mitochondria | 30 min, together with: succinate + rotenone | reference: CaCl2 maximal swelling | EC20 | > 400 µM |
| COc1c(N2C[C@@H]3CCCN[C@@H]3C2)c(F)cc2c(=O)c(C(=O)O)cn(C3CC3)c12 | – | healthy adults | oral, 400 mg single dose | – | subjects with adverse events | 41.9% |
| C[C@@H](O)[C@H]1C(=O)N2C(C(=O)O)=C(S[C@@H]3CN[C@H](C(=O)N(C)C)C3)[C@H](C)[C@H]12 | microdialysis | pig, Danish Landrace, subcutaneous adipose tissue | intravenous, 1000 mg over 10 min, 450 min dosing interval, together with: 0.25 µg/mL MIC | reference: dosing interval | time above MIC | 69% |
| O=c1[nH]c(=O)c(Cc2cccc(C(F)(F)F)c2)c([C@H]2CC[C@H](c3ccccc3)CC2)[nH]1 | – | human, plasma | oral, 450 mg once daily, day 7, geometric mean | – | AUC(0-tau) | 5600 ng·h/mL |
| CC[C@@H]1C(=O)N(C)c2cnc(Nc3ccc(C(=O)N[C@H]4CC[C@H](N5CCN(CC6CC6)CC5)CC4)cc3OC)nc2N1C(C)C | non-compartmental analysis | human, plasma | intravenous infusion, 350 mg (first infusion) | – | Vss | 4430 L |
| COc1cccc(-c2ccc(NC(=O)C3=C(C(=O)O)CCC3)c(F)c2)c1 | – | male human, plasma | oral, 30 mg, multiple doses, once daily | – | Vd/F | 13.1 L |
| Cc1nc2cccc(OCC(C)(C)C(=O)NC(C)C)c2c(N)c1C(=O)O | – | Sprague-Dawley rat, female, plasma | oral, 100 mg/kg, day 1 | – | Tmax | 0.25 h |
| Cc1cc(C)c2c(c1)[C@@H](N(Cc1cc(C(F)(F)F)cc(C(F)(F)F)c1)c1nnn(C)n1)CCCN2C[C@H]1CC[C@H](C(=O)O)CC1 | – | human, dyslipidemic patients, plasma | oral, 500 mg daily, monotherapy, geometric mean | – | AUC(0-tau) at steady state | 19700 ng·h/mL |
| O=C1CN(/N=C/c2ccc(-c3ccc([N+](=O)[O-])cc3)o2)C(O)=N1 | – | Sprague-Dawley rat, male, blood | oral, 100 mg/kg, 24 h | – | ALP | decreased |
| CCN(CC)CCNC(=O)c1c(C)[nH]c(/C=C2\C(=O)Nc3ccc(F)cc32)c1C | – | human, plasma | oral, 15 mg/m2, day 14 | – | median trough plasma concentration | 29.7 ng/mL |
| [2H]C([2H])([2H])Oc1cc2c(cc1OC([2H])([2H])[2H])C1CC(=O)C(CC(C)C)CN1CC2 (stereo not drawn) | item: deuterated total (α+β)-HTBZ | healthy human volunteers, plasma | oral, 12 mg single dose, standard meal | – | dose-normalized Cmax | 2.6 ng/mL |
| Cc1ccc(Nc2c(F)cccc2Cl)c(CC(=O)O)c1 | cytochrome c release, ELISA | BALB/cByJ female mouse liver mitochondria | 30 min | reference: alamethicin maximal release | EC20 | > 800 µM |
| Cc1cc(Nc2cc3ncccc3c(N[C@@H]3C[C@H]4CC[C@@H](C3)N4CCC#N)n2)n[nH]1 | – | Sprague-Dawley rat, male, plasma | oral, 30 mg/kg/day, last day of 13 weeks | – | Cmax | 6.53 ng/mL |
| Cn1c(-c2ccc(C(N)=O)cc2F)nnc1C(C)(C)Oc1c(F)cc(Cl)cc1F | – | healthy young Japanese subjects, plasma | oral, 20 mg once daily, day 18, 14 days dosing | – | AUC(0-tau) range | 1480 to 4480 ng·h/mL |
| O=C(O)c1cccc(CN2CN(C3CCCCC3)C3(CCN(CCCC(=O)c4ccccc4)CC3)C2=O)c1 | – | rat Sprague Dawley female | 1000 mg/kg/day, 4 to 8 min after start, second session | – | rearing activity | 3 counts |

| SMILES | assay | test system | setting | scale | measurement | result |
| --- | --- | --- | --- | --- | --- | --- |
| O=C(c1cccnc1-c1ccncc1)N1CCC(O)(Cc2ccccc2)CC1 | – | human, plasma | oral, 100 mg, multiple doses, once daily, healthy volunteers | – | Vd/F | 1140 L |
| CCc1oc2ccc(O)cc2c1C(=O)c1cc(Br)c(O)c(Br)c1 | metabolic stability | Sprague-Dawley rat, liver microsomes | 1 µM, pH 7.4 | – | microsomal CLint | 43.7 µL/min/mg |
| CC(C)[C@H](N)C(=O)OCC1(CO)C/C1=C/n1cnc2c(=O)[nH]c(N)nc21.Cl (mixture of isomers) | item: prodrug | Swiss-Webster mouse (male), plasma | intravenous, 24.6 mg/kg, two-compartment model | – | clearance | 217 mL/min |
| CC1(C)C(/C=C/C=C/C=C/C=C2\N(CCCCS(=O)(=O)O)c3ccc4ccccc4c3C2(C)C)=[N+](CCCCS(=O)(=O)[O-])c2ccc3ccccc3c21 | – | human serum in agar phantom | 1 h, room temperature, 21 MHz, gain 40 dB | reference: India Ink | photoacoustic signal slope | 0.06 ± 0.002 µM⁻¹ |
| NCCCC[C@@H]1NC(=O)[C@@H](Cc2c[nH]c3ccccc23)NC(=O)[C@H](c2ccccc2)NC(=O)[C@@H]2C[C@@H](OC(=O)NCCN)CN2C(=O)[C@H](Cc2ccccc2)NC(=O)[C@H](Cc2ccc(OCc3ccccc3)cc2)NC1=O | radioimmunoassay | healthy human male volunteers, plasma | subcutaneous, 100 µg | – | alpha half-life | 1.6 ± 0.3 h |
| O=S(=O)(O)Oc1cccc(O)c1O | – | human, fasted baseline, cerebrospinal fluid | – | – | median concentration | 3.8 nM |
| CNCc1ccc(-c2[nH]c3cc(F)cc4c3c2CCNC4=O)cc1 | – | human, fasted, plasma | oral, 600 mg, single dose, median | – | half-life | 18.8 h |
| CC(C)(CC(=O)N1CCCC1)NCC(=O)N1C[C@@H](F)C[C@H]1C#N | – | Chinese type 2 diabetes patients, plasma | oral, 200 mg once daily, multiple doses | – | AUC(0-tau) at steady state | 3370 ng·h/mL |
| CNC(=O)c1cc(Oc2ccc(NC(=O)Nc3ccc(Cl)c(C(F)(F)F)c3)c(F)c2)ccn1 | – | human | oral, dose not given, together with: esomeprazole 3 h before | reference: without esomeprazole | AUC(0-24h) change | -4.1% |
| Oc1ccc(C(c2ccc(O)cc2)(C(F)(F)F)C(F)(F)F)cc1 | – | female rat, plasma | oral, 110 mg/kg, single dose | – | bioavailability | 1% |
| NC(=O)c1cnccn1 | cytochrome c release, ELISA | BALB/cByJ female mouse liver mitochondria | 30 min | reference: alamethicin maximal release | EC20 | > 400 µM |
| CC(C)(C)NC(=O)[C@H]1CC[C@H]2[C@@H]3CC[C@H]4NC(=O)C=C[C@]4(C)[C@H]3CC[C@]12C | – | albino rabbit, plasma | oral, 1 mg/kg | – | absorption rate constant | 0.757 h⁻¹ |
| CC1=NS(=O)(=O)c2cc(Cl)ccc2N1 | cytochrome c release, ELISA | BALB/cByJ female mouse liver mitochondria | 30 min | reference: alamethicin maximal release | EC20 | > 200 µM |
| O=C(Cc1cccc(OC(F)(F)F)c1)Nc1ccc(CCCCc2nnc(NC(=O)Cc3ccccn3)s2)nn1 | non-compartmental analysis | human | oral, 1000 mg twice daily, fed, steady state, cycle 1 day 15 | – | AUC(0-8h) | 5070 ng·h/mL |
| CC(=O)Nc1ccc(O)cc1 | mitochondrial swelling | BALB/cByJ female mouse liver mitochondria | 30 min, together with: succinate + rotenone | reference: CaCl2 maximal swelling | EC20 | > 200 µM |
| O=C(NC[C@H]1CN(c2ccc(N3CCOCC3=O)cc2)C(=O)O1)c1ccc(Cl)s1 | – | Sprague-Dawley rat, male, plasma | oral, 10 mg/kg | – | apparent volume Vz/F | 23 ± 4.81 L/kg |
| CN(C)C(=N)N=C(N)N | cytochrome c release, ELISA | BALB/cByJ female mouse liver mitochondria | 30 min | reference: alamethicin maximal release | EC20 | > 800 µM |
| CC[C@H](C)[C@H](NC(=O)[C@H](C)NC(=O)[C@H](CCCNC(=N)N)NC(=O)[C@H](CCCNC(=N)N)NC(=O)[C@H](CC(N)=O)NC(=O)[C@H](CCCNC(=N)N)NC(=O)[C@H](CCCNC(=N)N)NC(=O)[C@H](C)NC(=O)[C@@H](NC(=O)[C@H](CO)NC(=O)[C@@H](NC(=O)[C@@H](NC(=O)[C@H](CS)NC(=O)[C@H](CCCCN)NC(=O)[C@@H](N)CCCNC(=N)N)C(C)C)[C@@H](C)CC)C(C)C)C(=O)N[C@@H](CCCCN)C(=O)N[C@H](C(=O)N[C@@H](CC(C)C)C(=O)N[C@@H](CS)C(=O)N[C@@H](CC(N)=O)C(=O)O)[C@@H](C)CC | LC-MS | PBS | 0.1 mg/mL | – | single disulfide form | 88% |
